# Experimental data gathered from unrelated publications.
# Lines come from different studies, so protocols differ. Values joined by “and” are separate records of one study, mostly repeats; a detail may differ. Numbers after ± are the reported error.
# Cell line: HepG2
SMILES,test,test system,setting,how to read,endpoint,result
COc1ccc(NC(=O)N2CCCCN3[C@H](CN(C)C)[C@H](c4ccc(C#Cc5ccccc5)cc4)[C@@H]3C2)cc1,,,,,CC50,5 µM
O=S(=O)(c1ccc(-c2ccc3ccnc(Nc4ccc(OCc5ccccc5)c(Cl)c4)c3c2)cc1)N1CCOCC1,"cytotoxicity, MTT",,48 h,,TC50,> 15 µM
Cc1noc(C)c1Nc1ccnc2ccc(-c3ccc(S(=O)(=O)N4CCOCC4)cc3)cc12,"cytotoxicity, MTT",,48 h,,TC50,> 20 µM
[Cl][Cd][Cl],,,"maximum tested, 24 h",reference: vehicle,relative survival,43%
O=S(=O)(c1ccc(-c2ccc3nccc(Nc4ccc(OCc5ccccc5)c(Cl)c4)c3c2)cc1)N1CCOCC1,"cytotoxicity, MTT",,48 h,,TC50,> 5 µM
CCC(C)(O)c1ccc(OCCc2cccc(F)c2)c(C(N)=O)c1 (centres unmarked),,,3 (unit not given),reference: CC50 glucose over CC50 galactose,selectivity ratio,1
O=S(=O)(c1ccc(-c2ccc3nccc(Nc4ccncn4)c3c2)cc1)N1CCOCC1,"cytotoxicity, MTT",,48 h,,TC50,> 20 µM
CN1CCN(S(=O)(=O)c2ccc(-c3ccc4cnnc(Nc5ccc(OCc6cccc(F)c6)c(Cl)c5)c4c3)cc2)CC1,"cytotoxicity, MTT",,48 h,,TC50,> 5 µM
NC(=O)c1cc(-c2cccs2)ccc1OCCc1cccc(F)c1,,,3 (unit not given),reference: CC50 glucose over CC50 galactose,selectivity ratio,1
O=S(=O)(c1ccc(-c2ccc3nccc(Nc4nnc(C5CC5)s4)c3c2)cc1)N1CCOCC1,"cytotoxicity, MTT",,48 h,,TC50,> 20 µM
NC(=O)c1cc(-c2ccsc2)cc(F)c1OCCc1cccc(F)c1,,,3 (unit not given),reference: CC50 glucose over CC50 galactose,selectivity ratio,1
N.N.[Cl][Pt][Cl],micronucleus,,"concentration not given, at maximum tested concentration",reference: vehicle,micronucleus frequency,2.4 fold
NC(=O)c1cc(-c2ccsc2)ccc1OCCc1cccc(F)c1,,,3 (unit not given),reference: CC50 glucose over CC50 galactose,selectivity ratio,1
COc1ncc(Nc2ccnc3ccc(-c4ccc(S(=O)(=O)N5CCOCC5)cc4)cc23)cn1,"cytotoxicity, MTT",,48 h,,TC50,> 20 µM
O=c1ccc2ccccc2o1,item: cell count,,"24 h, ER stress panel",,point of departure,825 µM
CC(=O)c1cc(-c2ccsc2)ccc1OCCc1cccc(F)c1,,,3 (unit not given),reference: CC50 glucose over CC50 galactose,selectivity ratio,> 3 and ~3
CN1CCCN(S(=O)(=O)c2ccc(-c3ccc4c(Nc5ccc(OCc6cccc(F)c6)c(Cl)c5)nccc4c3)cc2)CC1,"cytotoxicity, MTT",,48 h,,TC50,> 15 µM
CCN1CCN(Cc2ccc(Nc3nc4ccc(Oc5ccnc(NC(C)=O)c5)cc4n3C)cc2C(F)(F)F)CC1,cytotoxicity,,48 h,,EC50,6 ± 0.4 µM
CN1CCN(S(=O)(=O)c2ccc(-c3ccc4nncc(Nc5ccc(OCc6cccc(F)c6)c(Cl)c5)c4c3)cc2)CC1,"cytotoxicity, MTT",,48 h,,TC50,> 15 µM
Cc1ccc(N)cc1N,,,"maximum tested, 24 (unit not given)",reference: vehicle,micronuclei fold increase,0.7 fold
NC(=O)c1cc(-c2ccoc2)cc(F)c1OCCc1cccc(F)c1,,,3 (unit not given),reference: CC50 glucose over CC50 galactose,selectivity ratio,1
O=c1c2cc(Cl)c(CO)cc2[nH]c(=S)n1Cc1cccnc1,,,24 h,,LD50,> 100 µM
Cc1cscc1-c1ccc(OCCc2cccc(F)c2)c(C(N)=O)c1,,galactose medium,3 (unit not given),,CC50,31 ± 4 µM
Cc1c2ccccc2c(C)c2c1ccc1ccccc12,,,"maximum tested, 24 (unit not given)",,micronucleated cells,0.9%
CNC(=O)c1cc(C)ccc1OCCc1ccc(Br)cc1,,galactose medium,3 (unit not given),,CC50,21 ± 11 µM
O=S(=O)(c1ccc(-c2ccc3nccc(Nc4ncc(Cl)cn4)c3c2)cc1)N1CCOCC1,"cytotoxicity, MTT",,48 h,,TC50,> 20 µM

# Some of these lines once more:
SMILES,test,test system,setting,how to read,endpoint,result
CN1CCN(S(=O)(=O)c2ccc(-c3ccc4cnnc(Nc5ccc(OCc6cccc(F)c6)c(Cl)c5)c4c3)cc2)CC1,"cytotoxicity, MTT",,48 h,,TC50,> 5 µM
NC(=O)c1cc(-c2cccs2)ccc1OCCc1cccc(F)c1,,,3 (unit not given),reference: CC50 glucose over CC50 galactose,selectivity ratio,1
